Published values from different studies.
Parts stem from different laboratories: compare values within a part only. Substitutions count along the parent as printed.

Sample 1
Target: Histone acetyltransferase KAT6A, both winged helices, GST fusion (KAT6A, Homo sapiens, UniProt Q92794, residues 1-181)
Method: protein binding microarray
Form: double-stranded DNA, one strand shown
Matrix: in vitro
Concentration: not given
Setting: 8-mer, flanks averaged, mean of 2 arrays, mostly near background
Relative to: not given
Reading: higher = stronger binding
Residues (chain): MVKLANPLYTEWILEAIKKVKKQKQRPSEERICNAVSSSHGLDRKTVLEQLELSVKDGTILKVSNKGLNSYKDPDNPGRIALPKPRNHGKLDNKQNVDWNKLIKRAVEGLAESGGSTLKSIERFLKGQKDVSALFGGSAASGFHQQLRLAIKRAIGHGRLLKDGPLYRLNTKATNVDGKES
With `CGAGCGCC` the E-score was 0.234.
For `CATCGCGG`, the E-score was 0.281.
`AAAGAGAA` gave an E-score of -0.0216.
`GCAACGGA` has an E-score of 0.239.
`ACAAGCGT` has an E-score of 0.00161.
The E-score of `AACATCAC` is reported as -0.123.
For `CGACCTCC`, the E-score was -0.0876.
For `AGGGGCGC`, the E-score was 0.204.
`CCGATCCC` gave an E-score of 0.0426.
`ACTAACAT` has an E-score of -0.0604.
With `CAAAAAGG` the E-score was -0.186.

Sample 2
Target: RING finger protein unkempt homolog, zinc fingers 1-6, GST-SBP tag (UNK, Homo sapiens, UniProt Q9C0B0, residues 30-357)
Method: RNA Bind-n-Seq
Form: RNA
Matrix: in vitro
Concentration: not given
Setting: RNA with constant flanks, ends assumed
Relative to: input RNA pool
Reading: higher = stronger binding
Target sequence (chain): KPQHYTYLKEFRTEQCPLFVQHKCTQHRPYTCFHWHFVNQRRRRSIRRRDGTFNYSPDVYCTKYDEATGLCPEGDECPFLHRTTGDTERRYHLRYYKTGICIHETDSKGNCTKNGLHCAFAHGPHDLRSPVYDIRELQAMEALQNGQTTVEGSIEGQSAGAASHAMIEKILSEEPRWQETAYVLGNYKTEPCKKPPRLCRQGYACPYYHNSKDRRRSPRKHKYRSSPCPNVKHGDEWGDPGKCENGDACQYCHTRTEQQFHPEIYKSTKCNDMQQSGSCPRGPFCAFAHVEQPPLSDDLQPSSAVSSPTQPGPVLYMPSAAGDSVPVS
The bound/input enrichment of `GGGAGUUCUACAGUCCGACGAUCCUGGGUUUGCCAGCUGUUCCUGCGGUGACACUGUAUAAACACGAUGACCCUGCCUUGACUUCCGUUGCUGGUCUUACAUCAAAUAAGCCCACAGACAAACUCCGUGCCCUGCCUCUGUGGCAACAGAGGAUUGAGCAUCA` is reported as 0.0628 ratio.
`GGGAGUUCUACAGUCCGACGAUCGAGCAUCCCCCAAAGUUCACAAUGUGGCCGAGGACUUUGAUUGCACAUUGUUGUUUUUUUAACCGUCAUUCCAAAUAUGAGAUGCGUUGUUACAGGAAGUCCCUUGCCAUCCUAAAAGCCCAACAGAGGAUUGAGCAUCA` gave a bound/input enrichment of 0.198 ratio.
`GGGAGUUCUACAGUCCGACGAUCCUUUUUGAAUCUUUCAAGAGUUUUGAAGGUCUCUUUUAUUUUCUGGGAUCCAUUGUUAACUUCCGCCAGGACCCAGAUGUGCACUUUAAAUAUAUUCAGGCAGCUUGCAAGACUGGGCAACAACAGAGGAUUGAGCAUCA` has a bound/input enrichment of 0.48 ratio.
The bound/input enrichment of `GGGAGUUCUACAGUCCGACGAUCUGCUUGGUGCUGAUUUGUGAACCCAUUCCUCAUCCGUCAAAUAUUGAAAUUCCUUCCGACCGCAAGACAUUUCUCAGUCGACACAGCCUCGAUAUGAAAUUUUCUUACUGUGAUGAAAGACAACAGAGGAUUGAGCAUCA` is reported as 0.143 ratio.
`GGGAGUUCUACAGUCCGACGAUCGUUCAAGAAGAGCUCCUGAAAGGCUUGGACAAUAAGAAUCCCAAGAUCAUAGUGGCCUGUACCGAGACACUGAGGAAAGCCUUAAGUGAAUUUGGUUCCAAAAUCAUCUUGCUUAAGCCACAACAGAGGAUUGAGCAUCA` gave a bound/input enrichment of 0.507 ratio.
With `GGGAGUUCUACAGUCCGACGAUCGAUGUGGAAAUAAUCUUUAAUGAGCGCGGCUCCAAGGGAUUCGGGUUCGUAACUUUCGAGAACCGUGCUGAUGCAGACAGGGCCAGGGAGAAAUUGCACGGCACCGUGGUAGAGGGCCGUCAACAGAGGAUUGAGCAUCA` the bound/input enrichment was 0.366 ratio.
`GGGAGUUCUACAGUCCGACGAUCGCAGAUGAAGUAGAGUUUACUGUGGUUCCUGAUAUGCUCUCUGCUCAAAGAAAUCAUGCUAUCCGGAUUAAAAAACUUCCCAAGGGCACGGUUUCAUUUCAUUCCCAUUCAGAUCACCGUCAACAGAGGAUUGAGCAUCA` has a bound/input enrichment of 0.231 ratio.

Sample 3
Target: CCNB1, cyclin fold, Cln2 fusion (human)
Method: yeast growth competition, sequencing
Matrix: yeast
Setting: strong parent motif
Relative to: not given
Reading: higher = stronger binding
Starting sequence: E2F1 docking peptide (human); PPVKRRLDFETDH; partner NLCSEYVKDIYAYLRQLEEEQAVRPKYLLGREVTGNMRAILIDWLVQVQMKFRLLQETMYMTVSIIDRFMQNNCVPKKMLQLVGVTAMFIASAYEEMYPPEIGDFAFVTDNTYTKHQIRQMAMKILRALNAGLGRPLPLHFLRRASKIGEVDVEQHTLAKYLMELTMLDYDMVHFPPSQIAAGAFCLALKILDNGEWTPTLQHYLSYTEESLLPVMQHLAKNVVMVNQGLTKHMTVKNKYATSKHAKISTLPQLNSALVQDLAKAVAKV
For `PPVKRQLDFETDH [R6Q]`, “normalised enrichment score” read 3.94.
Under “normalised enrichment score”, `PPVKSRLDFETDH [R5S]` is recorded as 0.625.
Under “normalised enrichment score”, `PPVKRRLDFETYH [D12Y]` is recorded as 4.95.
`PPVKRRLDQETDH [F9Q]`: “normalised enrichment score” 0.325.
`PPVKRRWDFETDH [L7W]` — result for “normalised enrichment score”: 0.441.
For `PPVKRYLDFETDH [R6Y]`, “normalised enrichment score” read 3.01.

Further values, each from its own experiment
For `PhoQ, residues 284 288 289 292 302 303 SSYNSA`, the fold induction was 6.92 (PhoP, residues 12 14 15 18 19 NQGLL (Escherichia coli, UniProt P23836); Sort-seq, refers to: YFP reporter; E. coli; PhoQ-PhoP variant library, added: 10 µM Mg2+; relative to: high Mg2+ state, higher = stronger signaling).

Some of these lines once more (sample 1):
For `CGACCTCC`, the E-score was -0.0876.
